Measured values collected from several papers.
Every numbered part comes from another study and shows a few of its results, in no order. Values joined by “and” are separate records of one study, mostly repeats; a detail may differ.

Study 1 — endpoint: hypocotyl length
SMILES: O=C(O)C1(O)Oc2cc(F)ccc2N(Cc2ccccc2)C1=O (centres unmarked)
Arabidopsis thaliana Col-0 seedlings; 50 µg/mL, together with: branched-chain amino acids: 1.65 cm and 1.59 cm and 1.63 cm and 1.61 cm and 1.58 cm and 1.62 cm and 1.6 cm
Arabidopsis thaliana; Col-0; 100 µg/mL, seed germination, single repetition: 0.01 cm
Arabidopsis thaliana; Col-0; 3.125 µg/mL, seed germination, single repetition: 1.92 cm and 1.8 cm and 1.84 cm and 1.83 cm and 1.94 cm
Arabidopsis thaliana; Col-0, seedlings on half-strength MS medium; 50 µg/mL: 0.01 cm
Arabidopsis thaliana; Col-0, seedlings; 50 µg/mL, together with: BCAA: 1.61 cm
Arabidopsis thaliana; Col-0; 25 µg/mL, seed germination, single repetition: 0.94 cm and 1.09 cm and 0.89 cm and 1.03 cm and 1 cm
Arabidopsis thaliana; Col-0; 100 µg/mL, seed germination, repetition mean: 0.01 cm
Arabidopsis thaliana; Col-0, seedlings; 50 µg/mL, 1/2 MS medium: 0.01 cm
Arabidopsis thaliana; Col-0; 12.5 µg/mL, seed germination, repetition mean: 1.33 cm
Arabidopsis thaliana; Col-0; 25 µg/mL, seed germination, repetition mean: 0.98 cm
Arabidopsis thaliana; Col-0; 3.125 µg/mL, seed germination, repetition mean: 1.89 cm

Study 2 — cell line: U-87 MG; concentration: concentration not given; baseline: DMSO; endpoint: log2 fold change
Compound: CCN1/C(=C/C=C2\CCCC(/C=C/C3=[N+](CC)c4ccccc4C3(C)C)=C2NCCCCCCCCN2CCC(Nc3nc4ccccc4n3Cc3ccc(F)cc3)CC2)C(C)(C)c2ccccc21
measured: PARG mRNA: 0.867
measured: RNF185 mRNA: 1.51
measured: DENND1B mRNA: -1.39
measured: EIF5 mRNA: 1.23
measured: NFKBIE mRNA: 1.45
measured: PDLIM4 mRNA: -4.89
measured: RND3 mRNA: 1.93
measured: RBL1 mRNA: -1.38
measured: YRDC mRNA: 1.06
measured: CCDC198 mRNA: -1.66
measured: KIF11 mRNA: -2.08
measured: CSRNP2 mRNA: 1.14
measured: LRRC17 mRNA: -3.16
measured: OSBPL8 mRNA: 0.891
measured: DACT1 mRNA: 1.2
measured: SEC11C mRNA: 1.08

Study 3 — cell line: HCC1569; method: in-cell western; measured: CDK1 phospho-Thr14; endpoint: pCDK1 (Thr14) level
SMILES: Cc1ccc(O)c(C)c1-c1cnc2[nH]c(-c3cnc(N4CCC(CN5CCN(c6ccc7c(c6)C(=O)N(C6CCC(=O)NC6=O)C7=O)CC5)CC4)nc3)cc2c1C#N (centres unmarked)
1.37 nM: 13.9% and 20.7%
4.12 nM: 17.8% and 22.8%
111.11 nM: 72.5% and 73.6%
333.33 nM: 95.4% and 98%
37.04 nM: 43.7% and 52.8%
1000 nM: 108% and 110%
0.457 nM: 16.6% and 10.6%
12.35 nM: 41.9% and 43.8%

Study 4 — method: qRT-PCR; species: mouse, PK-59 xenograft; matrix: tumour; notes: unit not given; endpoint: mRNA level
Compound: Cc1ncsc1-c1ccc(C(CO)NC(=O)C2CC(O)CN2C(=O)C(C(C)C)n2cc(-c3ccc(COc4c(-c5c(C)c(F)cc6[nH]ncc56)c(C5CC5)cc5c(N6CC7CC6CN7)nc(OC6CCOCC6)nc45)cc3)nn2)cc1 (centres unmarked)
measured: ETV4; 30 mg/kg, 6 h; baseline: vehicle: 0.919 and 0.785 and 0.509
measured: FOSL1; intravenous, 10 mg/kg, 144 h; baseline: vehicle, same time point: 0.0106 and 0.0101 and 0.016
measured: ETV4; intravenous, 30 mg/kg, 144 h; baseline: vehicle, same time point: 0.0081 and 0.0104
measured: MYC; 10 mg/kg, 144 h; baseline: vehicle: 0.593 and 0.62 and 0.85
measured: ETV4; 10 mg/kg, 72 h; baseline: vehicle: 0.245 and 0.179 and 0.207
measured: DUSP4; intravenous, 30 mg/kg, 144 h; baseline: vehicle, same time point: 0.269 and 0.235
measured: MYC; intravenous, 30 mg/kg, 72 h; baseline: vehicle, same time point: 0.0384 and 0.0269 and 0.022
measured: DUSP6; intravenous, 10 mg/kg, 144 h; baseline: vehicle, same time point: 0.159 and 0.125 and 0.219
measured: DUSP4; intravenous, 10 mg/kg, 144 h; baseline: vehicle, same time point: 0.331 and 0.484 and 0.257

A few entries again (study 2):
measured: KIF11 mRNA: -2.08
measured: CSRNP2 mRNA: 1.14
measured: LRRC17 mRNA: -3.16
measured: OSBPL8 mRNA: 0.891
measured: DACT1 mRNA: 1.2
